Results collected from several papers.
Each line is one published result; not all experiments were run side by side. ± marks the error that the study gave.

With `Cc1ccc(Sc2ccccc2N2CCNCC2)c(C)c1` the Cmax was 2.7 ng/mL (healthy women, plasma; oral, 5 mg once daily, fed, day 1).
`Cc1ccc(NC(=O)c2ccc(CN3CCN(C)CC3)cc2)cc1Nc1nccc(-c2cncc(-c3oncc3C)c2)n1` has a Cmax of 5950 ng/mL (healthy volunteers, plasma; oral, 200.0 mg once daily, day 7, 7-day dosing, mean).
`Nc1nc(NC2CC2)c2ncn([C@H]3C=C[C@@H](CO)C3)c2n1` gave a Cmax of 3400 ng/mL (HIV-infected children and adolescents, Tanner stage 3-5, plasma; oral, 8 mg/kg).
For `Cc1ccnc2c1NC(=O)c1cccnc1N2C1CC1`, the Cmax was 328 ± 13.4 ng/mL (olive baboon female, serum; oral, 400 mg, tablet).
For `Cc1cc(Nc2cc3ncccc3c(N[C@@H]3C[C@H]4CC[C@@H](C3)N4CCC#N)n2)n[nH]1`, the Cmax was 860 ng/mL (pregnant rabbit, maternal plasma; oral, 60 mg/kg/day, gestation day 19).
`C[C@@H](N)c1cc(Cl)ccc1Cn1c(=S)[nH]c(=O)c2[nH]ccc21` gave a Cmax of 8.43 nM (healthy Japanese volunteers, plasma; oral, 2.5 mg once daily, day 1, geometric mean).
`CN1CC[C@H](c2c(O)cc(O)c3c(=O)cc(-c4ccccc4Cl)oc23)[C@H](O)C1` has a Cmax of 1230 nM (patients with advanced solid tumours, plasma; intravenous infusion, 40 mg/m^2, lower dose level, together with: FOLFOX).
With `CCOc1ccc2cc(-c3nn(CC4CCN(C)CC4)c4ncnc(N)c34)ccc2c1` the Cmax was 2400 ± 1200 nM (LC-MS/MS; Neospora caninum-infected pregnant sheep, plasma; oral, 100 mg/kg, after dose 3).
With `O=C1CCc2ccc(OCCCCN3CCN(c4cccc(Cl)c4Cl)CC3)cc2N1` the Cmax was 19.3 ± 3.9 ng/mL (healthy Japanese men, CYP2D6 IM, plasma; oral, 3 mg aripiprazole single, together with: fluvoxamine 100 mg/day).
`CN[C@H](CC(C)C)C(=O)N[C@H]1C(=O)N[C@@H](CC(N)=O)C(=O)N[C@H]2C(=O)N[C@H]3C(=O)N[C@H](C(=O)N[C@H](C(=O)O)c4cc(O)cc(O)c4-c4cc3ccc4O)[C@H](O)c3ccc(c(Cl)c3)Oc3cc2cc(c3O[C@@H]2O[C@H](CO)[C@@H](O)[C@H](O)[C@H]2O[C@H]2C[C@](C)(N)[C@H](O)[C@H](C)O2)Oc2ccc(cc2Cl)[C@H]1O` gave a Cmax of 22000 ng/mL (microdialysis; pig (Danish Landrace), subcutaneous adipose tissue; iv infusion, 1000 mg over 100 min, together with: meropenem co-administered).
The Cmax of `CC(C)=CCC[C@](C)(O[C@@H]1O[C@H](CO)[C@@H](O)[C@H](O)[C@H]1O)[C@H]1CC[C@]2(C)[C@@H]1[C@H](O)C[C@@H]1[C@@]3(C)CC[C@H](O[C@@H]4O[C@H](CO)[C@@H](O)[C@H](O)[C@H]4O)C(C)(C)[C@@H]3CC[C@]12C` is reported as 3.09 ± 5.03 ng/mL (LC-MS/MS; healthy male volunteers, serum; oral, 3 g fermented red ginseng).
With `C[C@H]1Oc2cc(cnc2N)-c2c(nn(C)c2C#N)CN(C)C(=O)c2ccc(F)cc21` the Cmax was 533 ng/mL (healthy adults; oral tablet, 100 mg single dose, fasted, adjusted geometric mean).
`CC(C)C(=O)OCC(=O)[C@@]12O[C@H](C3CCCCC3)O[C@@H]1C[C@H]1[C@@H]3CCC4=CC(=O)C=C[C@]4(C)[C@H]3[C@@H](O)C[C@@]12C` gave a Cmax of 0.117 ± 0.019 ng/mL (children with asthma, serum; inhalation without spacer, 160 µg, day 7, steady state).
With `N[C@@H](CC(=O)N1CCn2c(nnc2C(F)(F)F)C1)Cc1cc(F)c(F)cc1F` the Cmax was 467 ± 110 ng/mL (healthy Korean subjects, plasma; oral, 100 mg single dose, ABCB1 G2677T/A GG).
With `CC(C)(Sc1ccncc1-c1ccc(C#N)c2ccccc12)C(=O)O` the Cmax was 14.1 ng/mL (healthy men, plasma; oral, 10 mg once daily, day 14, geometric mean, together with: febuxostat 40 mg).
`CC(C)c1nc(CN(C)C(=O)N[C@H](C(=O)N[C@@H](Cc2ccccc2)C[C@H](O)[C@H](Cc2ccccc2)NC(=O)OCc2cncs2)C(C)C)cs1` gave a Cmax of 12900 ng/mL (healthy male, plasma; 600 mg single dose, arithmetic mean, together with: amenamevir 1200 mg).
With `NC(=O)c1cnc2[nH]ccc2c1N[C@@H]1[C@@H]2CC3C[C@H]1C[C@@](O)(C3)C2` the Cmax was 76.9 ng/mL (healthy Japanese men, plasma; oral, 20 mg, single dose fasted).

Repeated from above:
`C[C@@H](N)c1cc(Cl)ccc1Cn1c(=S)[nH]c(=O)c2[nH]ccc21` gave a Cmax of 8.43 nM (healthy Japanese volunteers, plasma; oral, 2.5 mg once daily, day 1, geometric mean).
